Experimental data of several laboratories.
Protocols differ between the studies behind these lines. ± marks the error that the study gave.

Compound	test	test system	setting	how to read	quantity	result
NCCC(=O)N1Cc2ccccc2-c2c(nnn2-c2cn(C3OC(CO)C(O)C3O)c(=O)[nH]c2=O)-c2ccccc21 (mixture of isomers)	frequency-domain fluorometry	methanol			fluorescence lifetime τ2	2.3 ns
CN1CCC(C)(C)c2cc3c(-c4ccc(C(=O)N5CCCCC5)s4)c4ccc(=[N+](C)C)cc-4sc3cc21		methanol	with: excitation 532 nm		fluorescence emission maximum	626 nm
Cc1ccc(-c2ccc(-c3cc4sccc4o3)cn2)nc1	TCSPC	CHCl3			fluorescence lifetime	0.92 ns
Nc1ncnc2c1nc(-n1nnc3c1CCC1C(CO)C1CC3)n2C1CC(O)C(CO)O1 (mixture of isomers)	frequency-domain fluorometry	methanol			fluorescence lifetime τ2	0.9 ns
COc1cc(OC)cc(C2=C3C(C)=C(I)C(C)=[N+]3[B-](F)(F)n3c(C)c(I)c(C)c32)c1		DMSO			fluorescence quantum yield	0.03
CC1=CC(C)=[N+]2C1=C(CCCC(=O)O)c1c(C)cc(C)n1[B-]2(F)F		acetonitrile/water			fluorescence lifetime	6.3 ± 0.1 ns
Nc1nc(-n2nnc3c2CCC2C(CO)C2CC3)nc2c1ncn2C1OC(CO)C(O)C1O (mixture of isomers)	frequency-domain fluorometry	methanol			fluorescence lifetime τ2	1 ns
COc1cc(OC)cc(C2=C3C(C)=C(I)C(C)=[N+]3[B-](F)(F)n3c(/C=C/c4c[nH]c5ccc([N+](=O)[O-])cc45)c(I)c(C)c32)c1		THF		reference: methylene blue	fluorescence quantum yield	0.32
Nc1ncnc2c1nc(-n1nnc3c1CCC1C(CO)C1CC3)n2C1OC(CO)C(O)C1O (mixture of isomers)	frequency-domain fluorometry	methanol			fluorescence lifetime τ3	5.9 ns
COc1cc(OC)cc(C2=C3C(C)=C(I)C(C)=[N+]3[B-](F)(F)n3c(/C=C/c4cccs4)c(I)c(C)c32)c1		DMSO		reference: methylene blue	fluorescence quantum yield	0.15
COCCOCCOCCOCCOCCOCCOCCOCCC(=O)NCCCc1cc2cc3nc(cc4[nH]c(cc5nc(c(OC)c1[nH]2)C(=O)C5(C)C)cc4CCc1ccc(C(=O)O)cc1)CC3(C)C		water	concentration not given	reference: DMF	fluorescence quantum yield reduction	61%
O=c1[nH]c(=O)n(C2OC(CO)C(O)C2O)cc1-n1nnc2c1CCC1C(CO)C1CC2 (mixture of isomers)	frequency-domain fluorometry	methanol			fluorescence lifetime τ2	1.3 ns
COc1cc(OC)cc(C2=C3C(C)=C(I)C(C)=[N+]3[B-](F)(F)n3c(/C=C/c4c[nH]c5ccccc45)c(I)c(C)c32)c1		THF		reference: methylene blue	fluorescence quantum yield	0.2
CC1=CC(C)=[N+]2C1=C(CCCC(=O)NCCCCCC(=O)NCCCCCC(=O)NCCCC[C@H](NC(=O)N[C@@H](CCC(=O)O)C(=O)O)C(=O)O)c1c(C)cc(C)n1[B-]2(F)F		acetonitrile/water			fluorescence lifetime	6.2 ± 0.1 ns
CN1CCC(C)(C)c2cc3c(-c4ccc(C(=S)N5CCCCC5)s4)c4ccc(=[N+](C)C)cc-4sc3cc21		methanol	with: excitation 532 nm		fluorescence emission maximum	626 nm
CC1=CC(C)=[N+]2C1=C(CCCC(=O)NCCCCCC(=O)NCCCC[C@H](NC(=O)N[C@@H](CCC(=O)O)C(=O)O)C(=O)O)c1c(C)cc(C)n1[B-]2(F)F		acetonitrile/water			fluorescence lifetime	6.1 ± 0.1 ns
NCCC(=O)N1Cc2ccccc2-c2c(nnn2-c2nc(N)c3ncn(C4OC(CO)C(O)C4O)c3n2)-c2ccccc21 (mixture of isomers)	frequency-domain fluorometry	methanol			fluorescence lifetime τ1	0.1 ns
CCOC(=O)c1[nH]c(C)c(/C=C/c2c(I)c(C)c3n2[B-](F)(F)[N+]2=C(C)C(I)=C(C)C2=C3c2cc(OC)cc(OC)c2)c1C		THF		reference: methylene blue	fluorescence quantum yield	0.22
